Published values from different studies.
Each numbered part is a random draw from the data of one study; scales do not carry over between parts. Several values in a cell are separate wells, animals, samples, runs or records.

Study 1
Organism: Arabidopsis thaliana
Strain: Col-0
Tested at: 6.25 µg/mL
Notes: seed germination, single repetition
| Structure (SMILES) | hypocotyl length |
| --- | --- |
| O=C(O)C1(O)Oc2cc(F)ccc2N(Cc2ccccc2)C1=O (centres unmarked) | 1.64 cm and 1.66 cm and 1.62 cm and 1.61 cm and 1.67 cm |
| CC(C)=CCN1C(=O)C(O)(C(=O)O)Oc2cc(F)ccc21 (centres unmarked) | 2.03 cm and 1.96 cm and 2.04 cm and 1.95 cm and 2.02 cm |
| CCN1C(=O)C(O)(C(=O)O)Oc2cc(F)ccc21 (centres unmarked) | 2.11 cm and 2.02 cm and 2.03 cm and 1.98 cm and 2 cm |
| O=C(O)C1(O)Oc2cc(Br)ccc2N(Cc2ccccc2)C1=O (centres unmarked) | 2.01 cm and 2.03 cm and 2.02 cm |
| O=C(O)C1(O)Oc2ccccc2N(Cc2ccccc2)C1=O (centres unmarked) | 1.93 cm and 1.89 cm and 1.91 cm and 1.94 cm |

Study 2
SMILES: CCN1CCN(Cc2ccc(COc3c(-c4c(C)c(F)cc5[nH]ncc45)c(C4CC4)cc4c(N5C[C@@H]6C[C@H]5CN6)nc(OC5CCOCC5)nc34)cc2)C(=O)C1
Technique: CellTiter-Glo
| cell line | setting | how to read | viability |
| --- | --- | --- | --- |
| AsPC-1 (KRAS G12D) | 100 nM |  | 65.4% and 75.1% and 68.4% and 71.9% |
| AsPC-1 (KRAS G12D) | 10 nM |  | 89% and 91.5% and 96.9% and 93% |
| AsPC-1 (KRAS G12D) | 3 nM |  | 82.6% and 74.9% and 95.1% and 86% |
| A-375 (KRAS wild type) | 1 µM, 6 days | relative to: DMSO | 101% and 103% and 108% |
| AsPC-1 (KRAS G12D) | 30 nM |  | 91% and 81% and 80.8% and 84.3% |
| AsPC-1 (KRAS G12D) | 1 nM |  | 77.8% and 80.5% and 82% and 71.9% |
| A-375 (KRAS wild type) | 100 nM, 6 days | relative to: DMSO | 88.8% and 98.4% and 118% and 87.1% |
| AsPC-1 (KRAS G12D) | 300 nM |  | 38.9% and 38.3% and 38.6% and 34.6% |

Study 3
SMILES: CCN1/C(=C/C=C2\CCCC(/C=C/C3=[N+](CC)c4ccccc4C3(C)C)=C2NCCCCCCCCN2CCC(Nc3nc4ccccc4n3Cc3ccc(F)cc3)CC2)C(C)(C)c2ccccc21
Cell line: U-87 MG
Tested at: concentration not given
Relative to: DMSO
| assay | log2 fold change |
| --- | --- |
| item: KANSL3 mRNA | 1 |
| item: SLF1 mRNA | -1.04 |
| item: TULP4 mRNA | 0.805 |
| item: MYH15 mRNA | -1.77 |
| item: SOX5 mRNA | 1.86 |
| item: SLC2A4RG mRNA | -1.34 |
| item: CSDC2 mRNA | -2.31 |
| item: SH3RF2 mRNA | -1.56 |
| item: SH3BP2 mRNA | -1.29 |
| item: ANKRD44 mRNA | -1.18 |
| item: MRGPRF mRNA | -3.39 |
| item: HAS2 mRNA | 1.64 |
| item: MAP7 mRNA | 2.46 |
| item: LAYN mRNA | -1.24 |
| item: FGF17 mRNA | 3.31 |
| item: ATF4 mRNA | 0.941 |

Study 4
SMILES: Cc1ccc(O)c(C)c1-c1cnc2[nH]c(-c3cnc(N4CCC(CCN5CCN(c6cc7c(cc6F)c(N6CCC(=O)NC6=O)nn7C)CC5)CC4)nc3)cc2c1C#N
Cell line: HCC1569
Technique: in-cell western
Item: CDK1 phospho-Thr14
| setting | pCDK1 (Thr14) level |
| --- | --- |
| 111.11 nM | 53.1 RLU and 58.4 RLU |
| 4.12 nM | 22.5 RLU and 25.8 RLU |
| 333.33 nM | 124 RLU and 121 RLU |
